Experimental data gathered from unrelated publications.
A part holds a random share of what one study measured.

Sample 1 — method: Spec-seq; form: double-stranded DNA, one strand shown; medium: in vitro; concentration: not given; notes: whole probe, mean of replicates; baseline: not given; reading: lower = stronger binding; all sequences stand within: GAGTCGTCTCGTCAGCAC … CCGTAGAGCACTCAGGTC
Target: POU, POU domain (Salpingoeca helianthica)
Residues (chain): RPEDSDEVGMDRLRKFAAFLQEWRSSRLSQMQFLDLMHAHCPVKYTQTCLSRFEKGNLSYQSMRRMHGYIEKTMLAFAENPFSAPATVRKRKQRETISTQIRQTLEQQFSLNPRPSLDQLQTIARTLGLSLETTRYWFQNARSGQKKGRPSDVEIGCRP
Oligonucleotide | relative binding energy
ATGCCTGC | 1.28 ln ratio
CCCATAAT | 0.763 ln ratio
ATGCCTGA | 1.8 ln ratio
CGGCTAAT | 0.575 ln ratio
ATCGCTAT | 1.01 ln ratio
ATCTGGAT | 1.44 ln ratio
ATCTCAAT | 0.838 ln ratio
GCCGTAAT | 0.87 ln ratio

Sample 2 — method: RNA Bind-n-Seq; form: RNA; medium: in vitro; concentration: 1 µM; notes: whole 134-nt RNA, ends assumed; with: 150 mM KCl; baseline: input library; reading: higher = stronger binding
Target: Ras GTPase-activating protein-binding protein 1, RRM domain (G3BP1, Homo sapiens, UniProt Q13283)
UniProt Q13283, sequence (whole entry, looked up): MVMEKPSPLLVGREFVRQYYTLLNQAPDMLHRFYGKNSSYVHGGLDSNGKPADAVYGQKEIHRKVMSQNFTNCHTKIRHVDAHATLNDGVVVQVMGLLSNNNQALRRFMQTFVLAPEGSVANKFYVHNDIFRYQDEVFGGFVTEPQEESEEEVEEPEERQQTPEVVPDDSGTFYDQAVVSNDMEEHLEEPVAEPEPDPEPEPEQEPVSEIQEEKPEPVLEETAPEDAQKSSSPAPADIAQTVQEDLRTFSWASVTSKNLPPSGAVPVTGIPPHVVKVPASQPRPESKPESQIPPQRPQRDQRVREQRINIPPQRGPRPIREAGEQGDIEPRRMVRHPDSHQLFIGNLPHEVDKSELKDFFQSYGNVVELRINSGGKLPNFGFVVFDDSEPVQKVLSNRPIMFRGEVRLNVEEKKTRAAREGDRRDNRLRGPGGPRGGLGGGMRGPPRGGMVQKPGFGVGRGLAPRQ
Oligonucleotide | log2 enrichment
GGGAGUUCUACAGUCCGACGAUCUCCUGUGCUACACAUCGUAUGUACCGAAUCGGGGAAAAAAAGGGGUUUUUGGGGUGGGGAAAGUAUUAUGUUACGCCGUUCGGAUCUGCAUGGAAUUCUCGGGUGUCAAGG | 0.843
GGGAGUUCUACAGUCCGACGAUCAGUCCUGUGCUACACAUCGUAUGUACCGAAUCGGCCCCGGGGCCCCGGGGCCCCGGGGAAAGUAUUAUGUUACGCCGUUCGGAUCUGCACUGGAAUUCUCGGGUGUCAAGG | -1.31
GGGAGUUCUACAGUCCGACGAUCUCAAGUCCUGUGCUACACAUCGUAUGUACCGAAUCGGGAAAGGGAAAGGGAAAGGAAAGUAUUAUGUUACGCCGUUCGGAUCUGCACUUCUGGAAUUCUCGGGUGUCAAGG | -0.191
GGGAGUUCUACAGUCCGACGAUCCACAGACAACACGCACCCACACUGACACAGAGGGAAGGGGUUGGGAUGGGGACAGGGUGCACAGCAGGGCGGGGUAGGACCCCAGCCCCUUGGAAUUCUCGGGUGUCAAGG | -0.0838
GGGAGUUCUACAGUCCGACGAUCCCUGUGCUACACAUCGUAUGUACCGAAUCGGUUUUUUUGGUUUUUUUGGGUUUUUUUGGGAAAGUAUUAUGUUACGCCGUUCGGAUCUGCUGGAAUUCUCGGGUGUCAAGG | -0.398
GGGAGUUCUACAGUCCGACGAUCCCUGUGCUACACAUCGUAUGUACCGAAUCGGUUUUUUGGGUUUUUUGGGGUUUUUUGGGGAAAGUAUUAUGUUACGCCGUUCGGAUCUGCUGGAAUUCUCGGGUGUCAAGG | -0.296
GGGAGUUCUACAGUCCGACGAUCUCAAGUCCUGUGCUACACAUCGUAUGUACCGAAUCGGAAAGGGAAAGGGAAAGGGAAAGUAUUAUGUUACGCCGUUCGGAUCUGCACUUCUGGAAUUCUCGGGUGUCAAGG | -0.141
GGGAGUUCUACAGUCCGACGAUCACCAUGCAGGUGGGCAUCUUUGGGAAGUGGGGCAAGGGGGGGAAAAGGAGGGGGGUAACACUUUGGGAACAGGUGGUCCCAGGUCGUUUCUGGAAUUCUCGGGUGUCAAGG | -0.357

Sample 3 — method: protein-binding microarray; form: double-stranded DNA, one strand shown; medium: in vitro; concentration: 2200 nM top; notes: 60-bp whole probe; with: salmon DNA 0.4 mg/ml; baseline: random background probes; reading: higher = stronger binding; all sequences stand within: GCCTAGCAC … GTCTTGATTCGCTTGACGCTGCTG
Target: Interferon regulatory factor 7, full length, phosphomimetic (IRF7, Homo sapiens, UniProt Q92985, residues 1-503, S471D/S472D/S475D/S476D/S477D/S483D/S484D/S487D)
Target sequence (chain): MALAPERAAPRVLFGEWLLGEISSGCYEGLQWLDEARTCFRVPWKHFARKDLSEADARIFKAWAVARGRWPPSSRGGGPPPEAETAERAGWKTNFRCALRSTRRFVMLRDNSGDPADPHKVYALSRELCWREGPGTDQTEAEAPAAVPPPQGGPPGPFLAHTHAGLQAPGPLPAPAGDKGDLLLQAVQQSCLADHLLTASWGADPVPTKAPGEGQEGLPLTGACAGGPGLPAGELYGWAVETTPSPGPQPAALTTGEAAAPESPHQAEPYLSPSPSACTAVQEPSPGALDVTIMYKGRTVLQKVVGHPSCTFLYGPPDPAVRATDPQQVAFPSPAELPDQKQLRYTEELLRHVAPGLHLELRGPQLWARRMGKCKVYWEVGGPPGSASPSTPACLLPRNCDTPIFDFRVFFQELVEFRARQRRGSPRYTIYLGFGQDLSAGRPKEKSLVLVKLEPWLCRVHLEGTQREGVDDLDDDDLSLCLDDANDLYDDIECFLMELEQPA
Oligonucleotide | fitted relative affinity [z-score]
TTAGATTCCAGTTTCTATTAGTGCTAG | 3.13
TTCGGTATCGGGACTGGGTTAGTGCTA | 0.594
GACGGACCGGACTATCGGGACGTGCTA | -1.21
GAAGATGTGTATATGACAATGTGCTAG | -0.0302
GACGGTGTCCTTTTCCTGACGTGCTAG | 0.846
GACGGTCTCCTTTTCCTGACGTGCTAG | 1.72
GACGGCATCGACTTTCGGGACGTGCTA | 2.16
CAGTTAATGAAAATTCTAATTGTGCTA | -0.276

Mixed results
Compound | method | measured | species | dose | notes | quantity | result
CC(C)n1cnc(-c2ccc(F)cc2)c1-c1ncc(C(=O)Nc2ccc(N3CCN(C)CC3)cc2)[nH]1 | phase 2a trial | infection | idiopathic pulmonary fibrosis patients | dose not given | grade 4, all arms pooled | adverse event incidence | 0%

Repeated from above (sample 3):
Oligonucleotide | fitted relative affinity [z-score]
TTAGATTCCAGTTTCTATTAGTGCTAG | 3.13
TTCGGTATCGGGACTGGGTTAGTGCTA | 0.594
